Results gathered from unrelated publications.
Protocols differ between the studies behind these lines.
Sequence of UniProt P49327 (whole entry, looked up): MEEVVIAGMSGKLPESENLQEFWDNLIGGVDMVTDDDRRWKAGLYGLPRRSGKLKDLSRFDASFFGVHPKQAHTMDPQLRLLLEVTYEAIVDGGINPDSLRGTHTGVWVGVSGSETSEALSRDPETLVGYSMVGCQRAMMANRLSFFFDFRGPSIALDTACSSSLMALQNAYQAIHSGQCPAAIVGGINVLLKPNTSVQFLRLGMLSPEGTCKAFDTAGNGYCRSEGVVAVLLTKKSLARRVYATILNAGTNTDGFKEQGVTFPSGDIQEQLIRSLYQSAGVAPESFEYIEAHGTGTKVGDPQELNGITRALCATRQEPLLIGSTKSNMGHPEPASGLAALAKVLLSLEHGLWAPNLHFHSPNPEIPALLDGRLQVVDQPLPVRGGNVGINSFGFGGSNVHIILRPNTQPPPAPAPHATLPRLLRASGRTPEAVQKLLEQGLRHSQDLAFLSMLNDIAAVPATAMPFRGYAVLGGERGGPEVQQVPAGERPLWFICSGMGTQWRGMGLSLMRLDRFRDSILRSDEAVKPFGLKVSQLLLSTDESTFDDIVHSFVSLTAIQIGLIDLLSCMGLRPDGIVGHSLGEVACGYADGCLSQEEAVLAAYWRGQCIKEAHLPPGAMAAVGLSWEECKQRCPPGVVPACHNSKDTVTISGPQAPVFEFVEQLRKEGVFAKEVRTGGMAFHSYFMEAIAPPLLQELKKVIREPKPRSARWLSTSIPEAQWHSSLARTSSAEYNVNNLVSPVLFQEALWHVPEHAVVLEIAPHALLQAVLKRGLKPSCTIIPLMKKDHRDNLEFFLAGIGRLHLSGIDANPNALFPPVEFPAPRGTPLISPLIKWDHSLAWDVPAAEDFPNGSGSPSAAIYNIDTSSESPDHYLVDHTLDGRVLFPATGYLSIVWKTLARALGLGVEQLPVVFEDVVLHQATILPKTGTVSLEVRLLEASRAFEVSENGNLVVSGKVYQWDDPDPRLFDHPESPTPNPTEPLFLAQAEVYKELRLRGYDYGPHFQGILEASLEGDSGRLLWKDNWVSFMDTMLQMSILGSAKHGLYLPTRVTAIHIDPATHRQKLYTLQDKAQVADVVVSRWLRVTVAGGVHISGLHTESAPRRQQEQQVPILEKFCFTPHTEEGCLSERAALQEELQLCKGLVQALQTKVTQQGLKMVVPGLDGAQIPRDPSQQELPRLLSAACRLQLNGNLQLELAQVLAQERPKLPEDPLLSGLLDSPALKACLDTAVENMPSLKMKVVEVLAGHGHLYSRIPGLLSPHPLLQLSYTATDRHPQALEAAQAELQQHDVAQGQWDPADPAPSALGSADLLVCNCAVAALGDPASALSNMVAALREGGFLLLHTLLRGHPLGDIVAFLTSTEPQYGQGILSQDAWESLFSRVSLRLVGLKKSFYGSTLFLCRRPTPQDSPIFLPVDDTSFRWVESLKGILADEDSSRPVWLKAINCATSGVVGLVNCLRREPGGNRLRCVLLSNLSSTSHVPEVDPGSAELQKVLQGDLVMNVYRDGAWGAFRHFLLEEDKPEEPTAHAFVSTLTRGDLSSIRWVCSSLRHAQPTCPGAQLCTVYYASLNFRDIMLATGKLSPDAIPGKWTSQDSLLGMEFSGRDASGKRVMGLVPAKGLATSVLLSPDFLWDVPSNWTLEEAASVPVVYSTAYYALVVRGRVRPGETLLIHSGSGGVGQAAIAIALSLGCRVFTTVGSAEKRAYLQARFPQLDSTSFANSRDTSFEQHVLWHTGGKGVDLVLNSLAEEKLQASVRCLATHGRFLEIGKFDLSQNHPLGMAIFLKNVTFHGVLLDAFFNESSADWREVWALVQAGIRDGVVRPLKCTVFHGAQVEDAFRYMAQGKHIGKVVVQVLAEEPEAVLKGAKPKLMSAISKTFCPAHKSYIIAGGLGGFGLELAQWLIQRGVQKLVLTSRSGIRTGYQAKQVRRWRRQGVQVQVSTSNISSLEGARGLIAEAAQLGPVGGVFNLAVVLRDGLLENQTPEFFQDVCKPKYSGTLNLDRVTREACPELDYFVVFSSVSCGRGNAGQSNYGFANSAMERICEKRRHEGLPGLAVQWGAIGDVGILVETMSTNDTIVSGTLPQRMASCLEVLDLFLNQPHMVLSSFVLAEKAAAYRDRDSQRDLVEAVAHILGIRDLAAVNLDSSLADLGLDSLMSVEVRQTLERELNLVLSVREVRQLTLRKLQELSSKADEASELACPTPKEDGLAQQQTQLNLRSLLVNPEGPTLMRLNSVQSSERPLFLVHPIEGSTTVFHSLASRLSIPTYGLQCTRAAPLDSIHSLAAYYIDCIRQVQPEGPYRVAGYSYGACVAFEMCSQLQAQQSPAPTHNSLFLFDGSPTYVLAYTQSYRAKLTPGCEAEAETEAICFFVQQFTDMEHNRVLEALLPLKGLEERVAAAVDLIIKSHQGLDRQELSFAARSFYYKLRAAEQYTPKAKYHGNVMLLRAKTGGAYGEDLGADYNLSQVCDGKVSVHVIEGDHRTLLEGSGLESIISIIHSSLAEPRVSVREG

Structure (SMILES)	tested on	test	test system	setting	how to read	endpoint	result
C[C@H]1CN(c2n[nH]c3nc(N[C@H]4CC[C@H](NS(=O)(=O)CCC(F)(F)F)CC4)ncc23)CCO1	Fatty acid synthase (FASN, Homo sapiens, UniProt P49327)	biochemical	–	–	–	IC50	≥ 20 µM
C[C@]1(CO)Cc2ncn(-c3ccc(C#N)c(Cl)c3)c2C(=O)O1	–	–	human, Chinese	20 mg single dose	–	subjects with drug-related orthostatic hypotension	16.7%
CN1CC[C@@H](c2c(O)cc(O)c3c(=O)cc(-c4ccc(C(F)(F)F)cc4Cl)oc23)[C@@H]1CO	–	measured: Anemia	AML	oral, 150 mg, intermittent dosing	–	patients with adverse event	50%
COc1cc2c(Oc3ccc4[nH]c(C)cc4c3F)ccnc2cc1OCC1(N)CC1	–	–	paediatric recurrent refractory sarcoma	10 mg	–	grade 3 Anorexia	0%
CO[C@H]1C[C@@H]2CC[C@@H](C)[C@@](O)(O2)C(=O)C(=O)N2CCCC[C@H]2C(=O)O[C@H]([C@H](C)C[C@@H]2CC[C@@H](OC(=O)NCCOCCOCCOCCOCCOCCOCCOCCOCCC(=O)N3CCc4cc(Cn5nc(-c6ccc7oc(N)nc7c6)c6c(N)ncnc65)ccc4C3)[C@H](OC)C2)C[C@@H](O)[C@H](C)/C=C(\C)[C@@H](O)[C@@H](OC)C(=O)[C@H](C)C[C@H](C)/C=C/C=C/C=C/1C	–	phase 1 dose escalation, measured: fatigue	advanced solid tumour patients	intravenous, 8 mg weekly, any grade	–	dose-reducing adverse events	0%
C[C@@H](O)[C@@H](CO)NC(=O)[C@@H](CCCNC(=N)N)NC(=O)[C@@H]1CCCN1C(=O)[C@@H]1CSSC[C@H](NC(=O)[C@H](Cc2ccccc2)NC(=O)CN2CCN(CC(=O)O)CCN(CC(=O)O)CCN(CC(=O)O)CC2)C(=O)N[C@@H](Cc2ccc(O)cc2)C(=O)N[C@@H](Cc2ccccc2)C(=O)N[C@@H](CCC(N)=O)C(=O)N[C@@H](CC(N)=O)C(=O)N1 [gallium-68 labelled]	–	–	human serum	4 h, 37 °C	–	radiochemical purity	> 98%
COc1ccc(CC(=O)NC2CCN(Cc3ccc(-c4ccccc4OC)cc3)C2)cc1 (centres unmarked)	Vero-E6	CellTiter-Glo ATP	–	72 h, retest 8-point duplicates	baseline: DMSO 0%, hyamine -100%, more negative, more toxic	maximum response	-7.42%
Cc1c2oc3c(C)ccc(C(=O)N[C@@H]4C(=O)N[C@H](C(C)C)C(=O)N5CCC[C@H]5C(=O)N(C)CC(=O)N(C)[C@@H](C(C)C)C(=O)O[C@@H]4C)c3nc-2c(C(=O)N[C@@H]2C(=O)N[C@H](C(C)C)C(=O)N3CCC[C@H]3C(=O)N(C)CC(=O)N(C)[C@@H](C(C)C)C(=O)O[C@@H]2C)c(N)c1=O	human coronavirus OC43	virus-induced cell killing	MRC-5	maximum over 10 doses	–	maximum inhibition	0%
Oc1ccccc1-c1nc(-c2cccs2)c(-c2cccs2)[nH]1	Vero-E6	CellTiter-Glo ATP	–	72 h, retest 8-point duplicates	baseline: DMSO 0%, hyamine -100%, more negative, more toxic	maximum response	-7.09%
CC(=O)c1c(C)c2cnc(Nc3ccc(C4CCN(CCS(C)(=O)=O)CC4)cn3)nc2n(C2CCCC2)c1=O	–	–	human, dose-escalation trial, plasma	oral, 100 mg twice daily, day 1, single dose	–	clearance	1480 mL/min
O=C1c2c(O)c(=O)ccn2N([C@@H]2c3ccccc3SCc3c2ccc(F)c3F)[C@@H]2COCCN12	–	–	BALB/c mice, plasma	oral, 0.5 mg/kg baloxavir marboxil, 1 h	–	plasma concentration	5.05 ng/mL
CC(=O)N1CCC(C(=O)N2CCN3C(=O)c4cc(-c5ccccc5)ccc4NC(=O)C3C2)CC1 (centres unmarked)	Salmonella typhimurium	–	TA1537	50 µg/plate	baseline: vehicle	fold increase in revertants	1.3
CCC1CCCCN1CCCNC(=O)c1sc2nc(C)cc(C)c2c1-n1cccc1 (centres unmarked)	Vero-E6	CellTiter-Glo ATP	–	concentration not given, 72 h, retest 8-point duplicates	baseline: DMSO 0%, hyamine -100%, more negative, more toxic	cytotoxicity efficacy	0%
COc1cc2nccc(Oc3ccc(NC(=O)C4(C(=O)Nc5ccc(F)cc5)CC4)cc3)c2cc1OC	human coronavirus OC43	virus-induced cell killing	MRC-5	screen	–	maximum inhibition	11.6%

A few entries again:
Structure (SMILES)	tested on	test	test system	setting	how to read	endpoint	result
COc1cc2nccc(Oc3ccc(NC(=O)C4(C(=O)Nc5ccc(F)cc5)CC4)cc3)c2cc1OC	human coronavirus OC43	virus-induced cell killing	MRC-5	screen	–	maximum inhibition	11.6%
